Measured values pooled from the literature.
Each line is one published result; not all experiments were run side by side. Several values in a cell are separate wells, animals, samples, runs or records. ± marks the error that the study gave.
Astl: Astacin-like metalloendopeptidase (Astl, Mus musculus, UniProt Q6HA09)
UniProt Q6HA09, sequence (whole entry, looked up): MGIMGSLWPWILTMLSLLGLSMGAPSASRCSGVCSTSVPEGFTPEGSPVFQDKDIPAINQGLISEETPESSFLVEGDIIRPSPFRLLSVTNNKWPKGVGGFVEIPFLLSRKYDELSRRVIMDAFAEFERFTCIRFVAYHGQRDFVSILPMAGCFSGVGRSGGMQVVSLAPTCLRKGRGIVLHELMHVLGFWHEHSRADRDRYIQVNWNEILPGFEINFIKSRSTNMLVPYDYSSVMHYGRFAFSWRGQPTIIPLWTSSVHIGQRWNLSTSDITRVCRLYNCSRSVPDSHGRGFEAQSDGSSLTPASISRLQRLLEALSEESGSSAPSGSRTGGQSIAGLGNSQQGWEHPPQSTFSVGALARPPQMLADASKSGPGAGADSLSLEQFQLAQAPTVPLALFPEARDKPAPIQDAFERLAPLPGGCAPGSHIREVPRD
MAPK8: Mitogen-activated protein kinase 8 (MAPK8, Homo sapiens, UniProt P45983)
UniProt P45983, sequence (whole entry, looked up): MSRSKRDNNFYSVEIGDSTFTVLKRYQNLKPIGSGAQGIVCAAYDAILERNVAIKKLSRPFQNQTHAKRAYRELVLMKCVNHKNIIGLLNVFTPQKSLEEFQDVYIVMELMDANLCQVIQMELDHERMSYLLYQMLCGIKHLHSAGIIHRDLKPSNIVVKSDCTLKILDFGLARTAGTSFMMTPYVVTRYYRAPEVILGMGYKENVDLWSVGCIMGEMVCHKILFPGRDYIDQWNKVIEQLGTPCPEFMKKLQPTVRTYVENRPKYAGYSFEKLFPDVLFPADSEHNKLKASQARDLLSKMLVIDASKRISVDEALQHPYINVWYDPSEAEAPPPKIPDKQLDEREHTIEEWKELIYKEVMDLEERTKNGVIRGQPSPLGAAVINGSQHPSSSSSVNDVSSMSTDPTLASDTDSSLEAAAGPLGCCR
STING1 H232R: Stimulator of interferon genes protein (STING1, Homo sapiens, UniProt Q86WV6, H232R)
UniProt Q86WV6, sequence (whole entry, unmodified, looked up): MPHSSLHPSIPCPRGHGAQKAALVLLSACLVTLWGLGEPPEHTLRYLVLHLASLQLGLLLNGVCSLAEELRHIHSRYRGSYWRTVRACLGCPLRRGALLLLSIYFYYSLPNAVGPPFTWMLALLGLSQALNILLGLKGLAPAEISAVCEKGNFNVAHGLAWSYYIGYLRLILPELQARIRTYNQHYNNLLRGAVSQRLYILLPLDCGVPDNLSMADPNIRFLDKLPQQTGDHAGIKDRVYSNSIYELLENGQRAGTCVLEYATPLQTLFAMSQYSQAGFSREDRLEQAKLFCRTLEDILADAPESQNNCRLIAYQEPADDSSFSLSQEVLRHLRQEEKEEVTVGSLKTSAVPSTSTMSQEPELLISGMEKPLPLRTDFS
Dipeptidyl peptidase 8: Dipeptidyl peptidase 8 (Homo sapiens, UniProt Q6V1X1)
UniProt Q6V1X1, sequence (whole entry, looked up): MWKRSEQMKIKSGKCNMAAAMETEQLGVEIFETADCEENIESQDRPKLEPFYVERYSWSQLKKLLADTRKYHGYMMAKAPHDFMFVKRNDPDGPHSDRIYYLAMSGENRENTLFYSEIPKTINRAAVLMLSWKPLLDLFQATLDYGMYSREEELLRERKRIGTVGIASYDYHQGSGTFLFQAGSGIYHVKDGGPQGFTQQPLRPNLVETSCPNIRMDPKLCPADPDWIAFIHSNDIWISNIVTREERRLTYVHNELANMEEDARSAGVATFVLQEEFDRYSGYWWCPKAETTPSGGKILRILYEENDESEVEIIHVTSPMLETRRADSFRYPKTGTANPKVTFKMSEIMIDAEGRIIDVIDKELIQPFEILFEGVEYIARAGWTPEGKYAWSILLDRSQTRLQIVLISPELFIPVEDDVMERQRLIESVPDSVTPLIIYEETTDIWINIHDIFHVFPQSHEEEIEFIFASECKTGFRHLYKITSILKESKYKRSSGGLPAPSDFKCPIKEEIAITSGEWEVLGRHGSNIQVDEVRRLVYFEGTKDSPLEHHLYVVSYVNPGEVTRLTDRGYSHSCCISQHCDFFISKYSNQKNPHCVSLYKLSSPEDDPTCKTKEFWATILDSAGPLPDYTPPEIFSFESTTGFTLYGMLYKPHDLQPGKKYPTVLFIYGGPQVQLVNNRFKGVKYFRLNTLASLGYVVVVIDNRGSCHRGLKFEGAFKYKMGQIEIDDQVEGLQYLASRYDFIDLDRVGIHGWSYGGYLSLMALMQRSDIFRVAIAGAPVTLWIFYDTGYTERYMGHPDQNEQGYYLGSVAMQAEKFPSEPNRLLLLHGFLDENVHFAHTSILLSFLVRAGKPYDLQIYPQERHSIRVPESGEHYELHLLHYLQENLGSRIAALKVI
UniProt Q14191, sequence (500-946, looked up): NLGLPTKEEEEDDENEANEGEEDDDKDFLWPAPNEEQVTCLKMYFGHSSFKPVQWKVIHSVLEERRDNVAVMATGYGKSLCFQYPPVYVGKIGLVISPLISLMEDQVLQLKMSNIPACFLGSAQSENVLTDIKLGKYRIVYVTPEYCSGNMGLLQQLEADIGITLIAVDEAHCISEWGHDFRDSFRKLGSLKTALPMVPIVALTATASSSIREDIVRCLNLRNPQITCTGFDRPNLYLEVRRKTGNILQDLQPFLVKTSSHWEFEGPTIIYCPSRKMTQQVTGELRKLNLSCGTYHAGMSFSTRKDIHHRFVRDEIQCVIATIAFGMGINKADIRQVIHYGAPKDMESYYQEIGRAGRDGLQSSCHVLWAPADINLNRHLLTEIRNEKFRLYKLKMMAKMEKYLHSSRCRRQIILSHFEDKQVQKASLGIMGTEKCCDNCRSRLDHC
UniProt Q9HB29, sequence (whole entry, looked up): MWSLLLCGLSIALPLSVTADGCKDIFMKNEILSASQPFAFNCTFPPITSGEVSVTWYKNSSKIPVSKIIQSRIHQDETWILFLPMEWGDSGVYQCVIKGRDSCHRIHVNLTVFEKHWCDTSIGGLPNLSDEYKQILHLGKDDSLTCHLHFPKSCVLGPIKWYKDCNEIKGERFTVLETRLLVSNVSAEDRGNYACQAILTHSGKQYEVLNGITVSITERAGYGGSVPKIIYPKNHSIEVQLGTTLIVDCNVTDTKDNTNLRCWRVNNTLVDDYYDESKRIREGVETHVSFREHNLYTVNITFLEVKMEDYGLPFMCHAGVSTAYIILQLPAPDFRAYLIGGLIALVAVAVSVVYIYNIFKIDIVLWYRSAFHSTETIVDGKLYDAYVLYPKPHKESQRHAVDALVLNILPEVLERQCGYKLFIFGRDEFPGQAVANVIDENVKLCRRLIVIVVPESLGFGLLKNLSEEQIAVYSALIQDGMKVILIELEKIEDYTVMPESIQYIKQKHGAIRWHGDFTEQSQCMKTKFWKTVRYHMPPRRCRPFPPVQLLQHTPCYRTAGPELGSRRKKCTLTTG
UniProt P22894, sequence (whole entry, looked up): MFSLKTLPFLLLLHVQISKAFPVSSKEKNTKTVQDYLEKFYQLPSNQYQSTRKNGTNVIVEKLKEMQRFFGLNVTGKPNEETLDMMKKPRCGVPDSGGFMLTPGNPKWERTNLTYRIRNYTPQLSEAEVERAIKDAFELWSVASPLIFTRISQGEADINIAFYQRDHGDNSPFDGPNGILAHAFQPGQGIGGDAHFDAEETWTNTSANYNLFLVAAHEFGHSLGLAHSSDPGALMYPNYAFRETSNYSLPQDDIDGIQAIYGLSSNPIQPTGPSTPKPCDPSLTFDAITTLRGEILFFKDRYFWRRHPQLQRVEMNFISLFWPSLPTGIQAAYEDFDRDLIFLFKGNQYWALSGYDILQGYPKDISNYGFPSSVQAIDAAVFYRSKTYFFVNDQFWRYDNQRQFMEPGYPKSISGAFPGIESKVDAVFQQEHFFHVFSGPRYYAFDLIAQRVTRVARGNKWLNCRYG

The remaining activity of `O=C(CN(Cc1ccc2c(c1)OCO2)Cc1ccc2c(c1)OCO2)NO` is reported as 85 ± 5% (Astl; enzyme activity, inhibitor, fluorogenic; 0.25 µM).
The remaining activity of `COc1ccccc1-c1ccncc1C(=O)Nc1nnc(OCc2ccc(Cl)cc2)s1` is reported as 99% (Bifunctional 3'-5' exonuclease/ATP-dependent helicase WRN, residues 500-946 (WRN, Homo sapiens, UniProt Q14191); ATPase activity, ADP-Glo; 0.008 µM; relative to: 0 µM cpd).
For `Cc1ccc(C[C@H](NC(=O)CN2CCCc3cc4cc(C(=O)NCCNC(=O)CCCC[C@@H]5SC[C@@H]6NC(=O)N[C@@H]65)c(=O)oc4cc32)C(=O)NC/C=C/S(=O)(=O)c2ccccc2)cc1`, the remaining activity was 7% (Rhodesain (rhodesain, Trypanosoma brucei rhodesiense, UniProt Q95PM0); enzyme activity, inhibitor, fluorescence; 5 µM).
For `CC(=O)N1c2ccc(-c3ccc(CNC(=O)c4cn5cc(-c6cnc(N)nc6)nc(N6CCOCC6)c5n4)cc3)cc2CC[C@@H]1C`, the remaining activity was 105% (Serine-protein kinase ATM (ATM, Homo sapiens, UniProt Q13315); enzyme activity, inhibitor, radiometric; 0.1 µM).
`O=C(CN(Cc1cccc(C(=O)O)c1)Cc1ccc2c(c1)OCO2)NO` has a remaining activity of 39 ± 3% (Astl; enzyme activity, inhibitor, fluorogenic; 5 µM).
`C[C@](C(=O)NC1CCOCC1)(c1cncnc1)N(C(=O)[C@H](F)Cl)c1ccc(OC(F)(F)Cl)cc1` has a remaining activity of 106% (Neutrophil collagenase (MMP8, Homo sapiens, UniProt P22894); enzyme activity, inhibitor; 10 µM).
`O=C(CN(Cc1ccc(Cl)c(O)c1F)Cc1ccc(Cl)c(O)c1F)NO` gave a remaining activity of 72 ± 4% (Astl; enzyme activity, inhibitor, fluorogenic; 0.25 µM).
For `COC(=O)[C@@]1(C)C=C(C(=O)Nc2cccc(C(=O)Nc3ccc(Nc4nccc(-c5cccnc5)n4)c(C)c3)c2)C(=O)CC1`, the remaining activity was 0.82 (MAPK8; enzyme activity, inhibitor; 0.006774 µM, 0 h, unit not given, with: GSH 10 mM pre-incubation; relative to: vehicle).
For `Cc1ncsc1-c1ccc(C(C)NC(=O)C2CC(O)CN2C(=O)C(NC(=O)CCCCCCCCCCN2CCCC(Nc3ncc(Cl)c(Nc4ccccc4S(=O)(=O)C(C)C)n3)C2)C(C)(C)C)cc1` (stereo not shown), “log2 fold change” read -1.33 (22Rv1; RNA-seq, measured: MTHFR mRNA; concentration not given; relative to: DMSO).
For `O=C(N[C@@H](CCNC(=O)c1ccc([N+](=O)[O-])o1)c1nc2ccccc2[nH]1)c1cc(-c2ccc(F)cc2F)on1`, the EC50 was 5.3 µM (STING1 H232R; reporter gene, inhibitor; THP1-Dual KI-hSTING-R232; 24 h, 1 h preincubation, with: diABZI 500 nM).
For `CCC1(CC)C(=O)N(c2cccc(CN3CCN(Cc4cccc5ccccc45)CC3)c2)C1=O`, the remaining activity was under 5% (Dipeptidyl peptidase 8; enzyme activity, inhibitor; 5 µM).
With `COc1ccc(CN(CC(=O)NO)Cc2cccc(C(=O)O)c2)cc1` the remaining activity was 102 ± 5% (Astl; enzyme activity, inhibitor, fluorogenic; 0.25 µM).
For `O=C(N[C@@H](CCNC(=O)c1ccc([N+](=O)[O-])o1)c1nc2ccccc2[nH]1)c1ccc(-n2ccnn2)cc1`, the EC50 was 21.7 µM (STING1 H232R; reporter gene, inhibitor; THP1-Dual KI-hSTING-R232; 24 h, 1 h preincubation, with: diABZI 500 nM).
`CC(C)[C@@H]1NC(=O)[C@H](Cc2ccccc2)NC(=O)CSC[C@@H](C(N)=O)NC(=O)[C@H](CCC(=O)O)NC(=O)[C@H](CO)NC(=O)[C@H](Cc2c[nH]c3cccc(Cl)c23)NC(=O)[C@H](C2CCCCC2)NC(=O)[C@H](C(C)C)NC(=O)[C@H](Cc2ccc(O)cc2)NC(=O)[C@H](CC(=O)O)NC(=O)[C@H](Cc2c[nH]c3ccccc23)NC(=O)[C@H](Cc2ccc(N)nc2)NC(=O)[C@H](Cc2c[nH]c3ccc(Cl)cc23)NC(=O)[C@H](CCC(=O)O)NC1=O` gave a remaining activity of 87.7% (Interleukin-1 receptor-like 2 (IL1RL2, Homo sapiens, UniProt Q9HB29); reporter gene (SEAP), inhibitor, HEK-Blue IL-36R reporter; HEK-Blue IL-36R cells; 0.046 µM, 6 h, with: IL-36β 0.3 ng/mL).
`O=C(CCN(Cc1ccc2c(c1)OCO2)Cc1ccc2c(c1)OCO2)NO` gave a remaining activity of 16 ± 3% (Astl; enzyme activity, inhibitor, fluorogenic; 5 µM).
The remaining activity of `CCC1(CC)C(=O)N(c2cccc(CN3CCN(C)CC3)c2)C1=O` is reported as 81% (Dipeptidyl peptidase 8; enzyme activity, inhibitor; 5 µM).
Under “log2 fold change”, `COC1CN([C@H]2CC[C@H]([C@@]3(C)Oc4c(Cl)cc(C(=O)NCc5c(SC)cc(C)[nH]c5=O)c(C)c4O3)CC2)C1` is recorded as 1.7 (RNA-seq, measured: HECTD2; human, whole blood; dose not given, 24 h; relative to: pretreatment baseline).
The remaining activity of `COC(=O)[C@]1(C(C)C)C=C(C(=O)Nc2cccc(C(=O)Nc3ccc(Nc4nccc(-c5cccnc5)n4)c(C)c3)c2)C(=O)CC1` is reported as 1 (MAPK8; kinase activity, inhibitor; 0.002258 µM, unit not given, with: 10 mM glutathione; relative to: no inhibitor).
`CN(Cc1cc(C2CC2)on1)C(=O)c1cccc(-c2ccc3c(c2)CCO3)c1` gave a remaining activity of 91.9% and 106% (Acetyl-CoA synthetase (Cryptococcus neoformans, UniProt J9VFT1); enzyme activity, inhibitor, coupled pyrophosphate; 244 nM).

Repeated from above:
`CC(C)[C@@H]1NC(=O)[C@H](Cc2ccccc2)NC(=O)CSC[C@@H](C(N)=O)NC(=O)[C@H](CCC(=O)O)NC(=O)[C@H](CO)NC(=O)[C@H](Cc2c[nH]c3cccc(Cl)c23)NC(=O)[C@H](C2CCCCC2)NC(=O)[C@H](C(C)C)NC(=O)[C@H](Cc2ccc(O)cc2)NC(=O)[C@H](CC(=O)O)NC(=O)[C@H](Cc2c[nH]c3ccccc23)NC(=O)[C@H](Cc2ccc(N)nc2)NC(=O)[C@H](Cc2c[nH]c3ccc(Cl)cc23)NC(=O)[C@H](CCC(=O)O)NC1=O` gave a remaining activity of 87.7% (Interleukin-1 receptor-like 2 (IL1RL2, Homo sapiens, UniProt Q9HB29); reporter gene (SEAP), inhibitor, HEK-Blue IL-36R reporter; HEK-Blue IL-36R cells; 0.046 µM, 6 h, with: IL-36β 0.3 ng/mL).
For `O=C(N[C@@H](CCNC(=O)c1ccc([N+](=O)[O-])o1)c1nc2ccccc2[nH]1)c1ccc(-n2ccnn2)cc1`, the EC50 was 21.7 µM (STING1 H232R; reporter gene, inhibitor; THP1-Dual KI-hSTING-R232; 24 h, 1 h preincubation, with: diABZI 500 nM).
